Results collected from several papers.
Each line is one published result; not all experiments were run side by side. Values joined by “and” are separate records of one study, mostly repeats; a detail may differ. ± marks the error that the study gave. ≈ marks a conversion by molar mass, not a printed value.

COc1cnc2cccc(N3CCc4c(cc(Cn5ccnc5)cc4-c4cn(C)nc4C(F)(F)F)C3=O)c2c1
MRT(0-inf) (male CD-1 mouse, plasma; intraperitoneal, 50 mg/kg): 2.3 h

COc1cccc(OC)c1-c1cc(C(=O)NC2(C(=O)O)C3CC4CC(C3)CC2C4)nn1-c1ccc(C(=O)NCCNC(=O)[C@H](CCCCNC(=O)[C@H](CC(C)C)NC(=O)C2OC2C(=O)O)NC(=O)CN2CCN(CC(=O)[O-])CCN(CC(=O)[O-])CCN(CC(=O)[O-])CC2)cc1C(C)C.[177Lu+3] (mixture of isomers)
tumour-to-muscle ratio (mouse, HT-29 xenograft; 72 h post injection, biodistribution; relative to: tumour over muscle uptake): 45.4

Cc1ccc(OCC(=O)N(Cc2cccs2)c2ccn[nH]2)cc1
remaining compound (human plasma; 750 ng/mL, 0.25 h, 37 °C, unit not given; relative to: time zero): 113

Cc1ncsc1-c1ccc(CNC(=O)[C@@H]2C[C@@H](O)CN2C(=O)[C@@H](NC(=O)COCC(C)(COCCOCCOCCNC(=O)C[C@@H]2N=C(c3ccc(Cl)cc3)c3c(sc(C)c3C)-n3c(C)nnc32)COCCOCCOCCNC(=O)C[C@@H]2N=C(c3ccc(Cl)cc3)c3c(sc(C)c3C)-n3c(C)nnc32)C(C)(C)C)cc1
concentration (male C57BL/6 mouse, plasma; subcutaneous, 5 mg/kg, 30 min, single dose): 1530 ng/mL

COC1CN([C@H]2CC[C@H]([C@@]3(C)Oc4c(Cl)cc(C(=O)NCc5c(SC)cc(C)[nH]c5=O)c(C)c4O3)CC2)C1
log2 fold change (RNA-seq, item: CCR3 mouse homolog; mouse, HT-1376 xenograft, whole blood; dose not given; relative to: vehicle): 1.1

C=CC(=O)Nc1cccc(Cn2ncc3cnc(Nc4cnn(CCOC)c4)nc32)c1
percent of control (DMPK2 human; binding, KINOMEscan; 100 nM; lower = stronger binding): 96%

C=CC(=O)N1CC2C(=O)N(CCN(C)C)c3c(c4cc(Cl)c(-c5c(O)cccc5F)nc4n(-c4c(C)ccnc4C(C)C)c3=O)N2CC1C (centres unmarked)
unbound plasma concentration (BALB/c nude mouse, plasma; oral, 100 mg/kg, 8 h): 1280 nM

Cc1ncsc1-c1ccc(C(C)NC(=O)C2CC(O)CN2C(=O)C(NC(=O)CCCCCCCCCCN2CCCC(Nc3ncc(Cl)c(Nc4ccccc4S(=O)(=O)C(C)C)n3)C2)C(C)(C)C)cc1 (centres unmarked)
log2 fold change (22Rv1; RNA-seq, item: TDRD7 mRNA; concentration not given; relative to: DMSO): -1.58

COc1ccccc1NC(=O)OC1C(C)C(OC)C=COC2(C)Oc3c(C)c(O)c4c(c3C2=O)C2=NC3(CCN(CC(C)C)CC3)NC2=C(NC(=O)C(C)=CC=CC(C)C(O)C(C)C(O)C1C)C4=O (centres unmarked)
elimination half-life (CD-1 mouse female, plasma; intravenous, 5 mg/kg): 14.1 h

N#C[C@@H]1CC(F)(F)CN1C(=O)CNC(=O)c1ccnc2ccc(OCCCN3CCN(C(=O)CCc4ccc5c(c4)CN4CCN(Cc6cc(CCC(=O)O)ccc6O)CC(=O)[O][Al-]([18F])([O]C(=O)C4)[O]5)CC3)cc12 (some centres unmarked)
radiochemical purity (radio-TLC; CD-1 mice, plasma; intravenous, 120 min post-injection): 55.7 ± 7.9%

CC[C@H](C)[C@@H]1NC(=O)[C@H](Cc2ccc(O)cc2)NC(=O)CCCSC[C@@H](C(=O)N(CC(=O)N[C@@H](CC(C)C)C(=O)NCC(N)=O)Cc2ccc(F)cc2)NC(=O)[C@H](CC(N)=O)NC(=O)[C@H](CCC(N)=O)NC1=O
drug-related headache (human; intranasal, 50 µg repeated doses): 33%

C=CC(=O)Nc1cc(Nc2nccc(-c3cn(C)c4ccccc34)n2)c(OC)cc1N(C)CCNC
recovery (storage stability; human dried blood spot; 10 d, -80 °C, LLOQ level): 92.7%

COc1cccc(OC)c1-c1cc(C(=O)NC2(C(=O)O)C3CC4CC(C3)CC2C4)nn1-c1ccc(C(=O)N(C)CCOCCOCCN(C)C(=O)[C@H](CCCCNC(=O)[C@H](CC(C)C)NC(=O)C2OC2C(=O)O)NC(=O)CN2CCN(CC(=O)[O-])CCN(CC(=O)[O-])CCN(CC(=O)[O-])CC2)cc1C(C)C.[177Lu+3] (mixture of isomers)
tissue uptake (mouse, HT-29 xenograft, heart; 168 h post injection): 0.15 %ID/g

Cc1nn(-c2nc3c(F)cc(F)cc3s2)c(O)c1C(c1ccc(C(F)(F)F)cc1)c1c(C)nn(-c2nc3c(F)cc(F)cc3s2)c1O
AUC(0-inf) observed (ICR mouse, plasma; intraperitoneal, 10 mg/kg): 31800 ng·h/mL and 30300 ng·h/mL and 27600 ng·h/mL

CN(O)C(=O)CCC(=O)NCCCN(CCCCN(CCCNC(=O)CCC(=O)N(C)O)C(=O)CCC(=O)N(C)O)C(=O)CCC(=O)N(C)O.[89Zr]
intact compound (0.9 % NaCl saline; 7 days, pH 4.5, 37 °C): 95.9 ± 2.7%

COc1ccc2c(c1)C(C)(C)C(/C=C/C1=C(Oc3ccc(C(=O)NCCCCOc4cc(CN(Cc5ccccn5)Cc5ccccn5)cc(CN(Cc5ccccn5)Cc5ccccn5)c4)cc3)C(=C/C=C3/N(CCCCS(=O)(=O)[O-])c4ccc(OC)cc4C3(C)C)CCC1)=[N+]2CCCCS(=O)(=O)[O-].O=[N+]([O-])[O-].O=[N+]([O-])[O-].[99Tc+].[C-]#[O+].[C-]#[O+].[C-]#[O+].[Zn+2]
tracer uptake (mouse, spleen; 12 h): 9.23 %ID/g

CCCCN1C(=O)c2cccc3c(NCCCCCCN4CCOCC4)ccc(c23)C1=O
fluorescence lifetime (ethylene glycol): 6.9 ns

O=C(c1ccccc1)N1C(c2ccc(OCC3CCN(CCCF)C3)cc2)c2ccc(O)cc2CC12CC2 (centres unmarked)
AUC(0-inf) (C57BL/6J mouse, plasma; intraperitoneal, 25 mg/kg): 8220 ng·h/mL

CN(Cc1ccccc1)C(=O)CN1CCN(CC(=O)[O-])CCN(CC(=O)N(C)Cc2ccccc2)CC1.[18F-].[Sc+3]
tracer uptake (mouse, muscle; intravenous, 1 h): 0.11 %ID/g

C=CC(=O)Nc1cc(Nc2nccc(-c3c[nH]c4ccccc34)n2)c(OC)cc1N(C)CCN(C)C
recovery (storage stability; human plasma; 5 h, -80 °C, medium QC level): 91.3%

CN(C(=O)C(C)(C)c1cc(C(F)(F)F)cc(C(F)(F)F)c1)c1cnc(N2C[C@H]3COCCN3C[C@H]2CO)cc1-c1ccc(F)cc1CO
Km (pooled human liver microsomes; pH 7.4, substrate depletion): 0.136 µM

O=C([O-])CN1CCN(CC(=O)[O-])CCN(CC(=O)[O-])CC1.[44Sc+3]
tracer uptake (mouse, spleen; intravenous, 1 h): 0.09 %ID/g

Cc1nc(N)nc2c1C(=O)N[C@@H](c1ccc(F)cc1-c1cccc(O[11CH3])n1)C2
SUV (ex vivo biodistribution; mice, MDA-MB-231 subcutaneous xenograft, spleen; 60 min post-injection, baseline, vehicle pre-treatment): 6.2 ± 0.4

O=C([O-])CN1CCN(CC(=O)[O-])CCN(C(CO)C(O)CO)CCN(CC(=O)[O-])CC1.[Dy+3] (centres unmarked)
cumulative urinary excretion (ICP-MS; cynomolgus monkey; dose not given, 1 d 24 h, mass balance group; relative to: dose): 95.9%

CN1CCC[C@]1(C)/C=C/S(=O)(=O)NC(=O)Nc1c2c(cc3c1CCC3)CCC2
subjects with adverse event (item: Headache, possibly related; human; oral, 12.5 mg twice daily, 14 days, multiple ascending dose): 0%

CC(C)(C)NCC(SS(=O)(=O)O)c1ccccc1 (centres unmarked)
body weight (Swiss Webster mice, Schistosoma mansoni-infected; 100 mg/kg x 2 doses from day 42 post-infection, perfusion day 56 post-infection): 36.2 g

O=C([O-])CN1CCN(CC(=O)[O-])CCN(Cc2cccc(C(=O)[O-])n2)CC1.[44Sc+3]
tracer uptake (mouse, liver; intravenous, 1 h): 0.75 %ID/g

CCC1CNC(CC)CN(C(C(=O)[O-])c2ccc(C(=O)[O-])cc2)C(CC)CN(CC(=O)[O-])C(CC)CN1.[Mn+2] (centres unmarked)
Mn uptake (ICP-MS; BALB/c mice, liver; intravenous, 0.05 mmol/kg, 5 min; relative to: injected dose): 8.55 ± 1.4%

CC(C)c1cnc(-c2cc(Cl)ccc2F)cc1Nc1ccncc1C(=O)NC(CO)CO
unbound AUC(0-tau) (female C57BL/6 mice, plasma; oral, 30 mg/kg twice daily, day 7, MC-38 tumour-bearing, tau 8 h): 0.307 µM·h

O=C(Nc1cnccc1-c1ccc([18F])cc1)c1ccnc(NC(=O)C2CC2)c1
SUV (ex vivo gamma counting; GSK-3β transgenic mice, early-stage, liver; intravenous, 120 min, mean, P-gp inhibitor pretreatment, added: tariquidar 15 mg/kg iv): 5.3

C[C@]12C[C@H](c3ccc(S(C)(=O)=O)cc3)C3=C4CC[C@@H](O)C=C4CC[C@H]3[C@@H]1CC[C@@]2(O)C(F)(F)C(F)(F)F
AUC(0-24 h) (human, plasma; oral, 5 mg multiple doses, day 28): 97.8 ng·h/mL

CN(Cc1ccccc1)C(=O)CN1CCN(CC(=O)[O-])CCN(CC(=O)[O-])CC1.[44Sc+3]
tracer uptake (mouse, liver; intravenous, 1 h): 2.34 %ID/g

OC1(C(F)(F)F)CCN(c2nc(Nc3ccnc(C(F)(F)F)c3)nc(-c3cccc(C(F)(F)F)n3)n2)C1 (centres unmarked)
C0 (monkey, both sexes, plasma; intravenous, 1 mg/kg): 690 ± 49.5 ng/mL

CC(C)OCCOCc1ccc(OCC(O)CN(N=O)C(C)C)cc1 (centres unmarked)
revertant fold increase (Escherichia coli; Ames test; WP2 uvrA; 50 µg/plate, 30 % hamster S9; relative to: solvent control): 1 fold

CN(CCCO)Cc1ccc(-c2noc(-c3ccc(OCC[18F])c(C(F)(F)F)c3)n2)cc1F
brain uptake (Sprague-Dawley rat, male, brain; intravenous, 60 min): 0.73 ± 0.15 %ID/g

COC(=O)[C@@]1(C)C=C(C(=O)Nc2cccc(C(=O)Nc3ccc(Nc4nccc(-c5cccnc5)n4)c(C)c3)c2)C(=O)CC1
scaled intrinsic clearance (Wistar rat male, primary hepatocytes): 294 mL/min/kg

Cc1cc(C(=O)Nc2nc3cccc(C)c3n2[C@H]2CCCCN(C(=O)/C=C/CN(C)C)C2)ccn1
brain tissue binding (rat, brain tissue; dose not given): > 99%

CN([O-])C(=O)CN1CCN(CC(=O)N(C)[O-])CCN(Cc2ccccn2)CC1.[89Zr+4]
intact complex (radio-TLC; human serum; 7 days, run 1): 86.9%

O=c1c2ccccc2[se]n1CCCCCCn1[se]c2ccccc2c1=O
solubility (shake-flask, RP-HPLC; 10% PEG6000 solution; 24 h, 25 °C): 6 ± 1 µg/mL (≈ 12.5 µM)

N#C[C@@H]1CCCN1C(=O)CNC(=O)c1ccnc2ccc(OCCCN3CCN(C(=O)CCc4ccc(O)c(CN5CCN6CC(=O)[O][Al-]([18F])([O]C(=O)C5)[O]c5ccc(CCC(=O)N7CCN(CCCOc8ccc9nccc(C(=O)NCC(=O)N%10CCC[C@H]%10C#N)c9c8)CC7)cc5C6)c4)CC3)cc12 (some centres unmarked)
tumour-to-organ ratio (BALB/c nude mice, U-87 MG tumour; 120 min post-injection; relative to: tumour over bone): 4.36 ± 2.14

CN(Cc1ccccc1)C(=O)CN1CCN(CC(=O)[O-])CCN(Cc2cccc(C(=O)[O-])n2)CC1.[44Sc+3]
tracer uptake (mouse, heart; intravenous, 1 h): 0.21 %ID/g

O=C(Nc1cnccc1-c1ccc([18F])nc1)c1ccnc(NC(=O)C2CC2)c1
SUV (PET imaging; normal FVB/NJ mouse, both sexes, brain; intravenous, first 5 min post-injection): 0.2 ± 0.09

C=C(NC(=O)c1csc(-c2nc3c(cc2O)-c2nc(cs2)C(=O)NC(C(C)O)C(=O)NC(=C(C)OC)c2nc(cs2)C(=O)NC2c4nc(cs4)C(=O)NC(COC(=O)c4c5c6c(cccc6n4O)COC(=O)C(OC4CC(C)(O)C(N(C)C)C(C)O4)C2OC5)c2nc-3cs2)n1)C(N)=O (centres unmarked)
Cmax (ICR mice, Streptococcus pneumoniae ATCC 49169 infected, immunocompromised, blood; intravenous, 2 mg/kg/day three times daily): 31.9 ng/mL

C/C(N)=N/C(=N\S(=O)(=O)c1ccc(C(F)(F)F)cc1)N1C[C@H](c2ccccc2)C(c2ccc(Cl)cc2)=N1
t1/2 (C57BL/6 mouse male, adipose tissue; intravenous, 10 mg/kg): 3.3 h

Some of these lines once more:
OC1(C(F)(F)F)CCN(c2nc(Nc3ccnc(C(F)(F)F)c3)nc(-c3cccc(C(F)(F)F)n3)n2)C1 (centres unmarked)
C0 (monkey, both sexes, plasma; intravenous, 1 mg/kg): 690 ± 49.5 ng/mL

CC(C)OCCOCc1ccc(OCC(O)CN(N=O)C(C)C)cc1 (centres unmarked)
revertant fold increase (Escherichia coli; Ames test; WP2 uvrA; 50 µg/plate, 30 % hamster S9; relative to: solvent control): 1 fold

CN(CCCO)Cc1ccc(-c2noc(-c3ccc(OCC[18F])c(C(F)(F)F)c3)n2)cc1F
brain uptake (Sprague-Dawley rat, male, brain; intravenous, 60 min): 0.73 ± 0.15 %ID/g

COC(=O)[C@@]1(C)C=C(C(=O)Nc2cccc(C(=O)Nc3ccc(Nc4nccc(-c5cccnc5)n4)c(C)c3)c2)C(=O)CC1
scaled intrinsic clearance (Wistar rat male, primary hepatocytes): 294 mL/min/kg

Cc1cc(C(=O)Nc2nc3cccc(C)c3n2[C@H]2CCCCN(C(=O)/C=C/CN(C)C)C2)ccn1
brain tissue binding (rat, brain tissue; dose not given): > 99%

CN([O-])C(=O)CN1CCN(CC(=O)N(C)[O-])CCN(Cc2ccccn2)CC1.[89Zr+4]
intact complex (radio-TLC; human serum; 7 days, run 1): 86.9%
